# Measured values pooled from the literature.
# Every numbered part comes from another study and shows a few of its results, in no order. Positions count from the first letter of the parent shown.

# Series 1 — method: RNA Bind-n-Seq; molecule type: RNA; medium: in vitro; concentration: not given; setting: RNA with constant flanks, ends assumed; relative to: input RNA pool; reading: higher = stronger binding
# Target: RING finger protein unkempt homolog, zinc fingers 1-6, GST-SBP tag (UNK, Homo sapiens, UniProt Q9C0B0, residues 30-357)
# Sequence of UniProt Q9C0B0 (30-357, looked up): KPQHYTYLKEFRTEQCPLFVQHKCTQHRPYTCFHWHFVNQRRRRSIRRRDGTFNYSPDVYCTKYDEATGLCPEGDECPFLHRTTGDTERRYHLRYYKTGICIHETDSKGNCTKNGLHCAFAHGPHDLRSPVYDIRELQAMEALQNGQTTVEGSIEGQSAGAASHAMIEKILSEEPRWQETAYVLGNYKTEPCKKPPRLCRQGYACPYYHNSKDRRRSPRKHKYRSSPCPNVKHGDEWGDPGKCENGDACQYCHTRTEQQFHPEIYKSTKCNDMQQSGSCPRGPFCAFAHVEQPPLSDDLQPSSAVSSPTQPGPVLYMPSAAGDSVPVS
# All sequences stand within: GGGAGUUCUACAGUCCGACGAUC … CAACAGAGGAUUGAGCAUCA
Strand,bound/input enrichment [ratio]
GAGGAUGGAGAAGACCAGCCAAAGCAAGUUUAUGUUGAUAAGUUGGCUGAAUUAAAAAAUCCCGGUCAACCUAUUAAGAUACGUUUCCAGGAAUCUGAAGAACGACCAAAAUUAUUUGAA,0.41
UGUAAGCUGCCAAGACUGUCUCUGAAUGGAGUCCGGUUUAAGCGGAUAUCAGGGACAUCCACCGCUUUCAAAAAUAUUGCUUCCAAAAUUGCCAAUGAGCUAAAGCUGUAACCCAGUAAU,0.143
UACAGAUAGUACCAUUAAGAUGAGUUUUCAGGGGUCUAGGGAAGUUAAGGGUGGGAGGGUAUCCGGUAAGGGAGAUAGACGUUUAGAGAUGUGUUAAGUUAGAAAUCAGAUUGAUGCAAG,37.6
AAAAUCAAAAACAUUUUCAUAUAUACCAGAGUACUGUAAAAUCUAGGUUUUUUUCAACAUCCGCAGUAAAUUGAGCACUGUUUACUGUUUCAUUGUACCAUGAAACCAUUUGAUUUUUAC,0.342
AACACCAACACAGCAAUUGAACUAAAAUUAGUUCGUUUUCCUGAAGAUCUUGAAAAUGACAUCCGAACUUUCUUUCCUGAGUAUACCCAUCAACUCUUUGGGGAUGAUGAAACUGCUUUU,0.112
UUUUUUGGGGGUGGAUUUCCUUCAGGUAGUGUACAUUCUUUUUCAAAUGGAAGAGCUGGUUACCGCCAACAACAUCAGCAUCGACAUAGUGGACAUGAAAGAGAAGAGGAAAGAGGAGAU,0.721
AGGACCGUGCAGAACCCAGCUGCAUUGAAGACCAAUGGAGAGCAUGUAUUUUAACUUGGAUUCCGGCAGGAAGUGAUACAUGAUGGUGAAGAAAACGGCCCUGAAGAAUGGACCAUAUUC,0.155
UCAGAUAACCUUACCCGGGCUUGUAGCCUAGUGCGGGAGGCAGCAAAGCAAGGUGCCAACACCGUUUCUCUGCCUGAGUGCUUCAAUUCUCCAUAUGGAACAACCUACUUUCCUGACUAU,0.13

# Series 2 — method: RNA Bind-n-Seq; molecule type: RNA; medium: in vitro; concentration: 200 nM; setting: whole 134-nt RNA, ends assumed; together with: 150 mM KCl; relative to: input library; reading: higher = stronger binding
# Target: Ras GTPase-activating protein-binding protein 1, full length (G3BP1, Homo sapiens, UniProt Q13283)
# Sequence of UniProt Q13283 (whole entry, looked up): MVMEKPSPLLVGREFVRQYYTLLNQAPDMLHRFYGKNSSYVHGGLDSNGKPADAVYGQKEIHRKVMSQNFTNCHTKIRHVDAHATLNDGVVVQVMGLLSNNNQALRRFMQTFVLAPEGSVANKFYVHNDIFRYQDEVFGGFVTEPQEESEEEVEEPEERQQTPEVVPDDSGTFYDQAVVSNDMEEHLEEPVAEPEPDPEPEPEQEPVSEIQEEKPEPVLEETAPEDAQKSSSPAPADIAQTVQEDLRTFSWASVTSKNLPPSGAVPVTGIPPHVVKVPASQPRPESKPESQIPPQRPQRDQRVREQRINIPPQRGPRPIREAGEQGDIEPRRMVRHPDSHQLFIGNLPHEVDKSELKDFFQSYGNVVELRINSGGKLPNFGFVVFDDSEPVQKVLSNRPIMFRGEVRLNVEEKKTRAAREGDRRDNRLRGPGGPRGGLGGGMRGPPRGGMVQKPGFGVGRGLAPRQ
# All sequences stand within: GGGAGUUCUACAGUCCGACGAUC … UGGAAUUCUCGGGUGUCAAGG
Strand,log2 enrichment
UGGGAGGUGGAUUUUGUUUAUUUUUUUAGCUCAUUUCUAGGGGUGGGAAUUUUUUUUUAAUAUGUGUCAUGAAUAAAGUUGUUUUUGAAA,-0.0758
CUGUGCUACACAUCGUAUGUACCGAAUCGGGGAAAGGGGUUUUUUUGGGGUUUUUUUGGGGAAAGUAUUAUGUUACGCCGUUCGGAUCUG,-0.185
UGCCAUGGACAAUAUUACCAGGCAGAACCAAUUCUACGAUACCCAAGUCAUCAAACAAGAAAACGAGUCAGGCUACGAGAGGAGACCACU,-0.109
AAAGCAAGAGAUGGCUAGUGCUUCAUCCAGCCAAAGAGGUAUGCUUGUUGCUUAAUUAAACCUUAAAGGUAACUUUGAGUUACUCCAGUA,-1.28
CCUGUGCUACACAUCGUAUGUACCGAAUCGGCCCCCCGGGGCCCCCCGGGCCCCCCGGGGAAAGUAUUAUGUUACGCCGUUCGGAUCUGC,-0.826
CAAGUCCUGUGCUACACAUCGUAUGUACCGAAUCGGGGAGGGGUUUGGGGUGGGGAAAGUAUUAUGUUACGCCGUUCGGAUCUGCACUUC,1.52
UGGGAGGUGGAUUUUGUUUCUUUUUUUAGCUCAUUUCCAGGGGUGGGAAUUUUUUUUUAAUAUGUGUCAUGAAUAAAGUUGUUUUUGAAA,0.328
UCCUGUGCUACACAUCGUAUGUACCGAAUCAAAUUUUUAAAUUUUUAAACCCCCCCAAAAAAGUAUUAUGUUACGCCGUUCGGAUCUGCA,0.127

# Further values, each from its own experiment
# P1: viral docking peptide; TSVRRALFTGGSD; partner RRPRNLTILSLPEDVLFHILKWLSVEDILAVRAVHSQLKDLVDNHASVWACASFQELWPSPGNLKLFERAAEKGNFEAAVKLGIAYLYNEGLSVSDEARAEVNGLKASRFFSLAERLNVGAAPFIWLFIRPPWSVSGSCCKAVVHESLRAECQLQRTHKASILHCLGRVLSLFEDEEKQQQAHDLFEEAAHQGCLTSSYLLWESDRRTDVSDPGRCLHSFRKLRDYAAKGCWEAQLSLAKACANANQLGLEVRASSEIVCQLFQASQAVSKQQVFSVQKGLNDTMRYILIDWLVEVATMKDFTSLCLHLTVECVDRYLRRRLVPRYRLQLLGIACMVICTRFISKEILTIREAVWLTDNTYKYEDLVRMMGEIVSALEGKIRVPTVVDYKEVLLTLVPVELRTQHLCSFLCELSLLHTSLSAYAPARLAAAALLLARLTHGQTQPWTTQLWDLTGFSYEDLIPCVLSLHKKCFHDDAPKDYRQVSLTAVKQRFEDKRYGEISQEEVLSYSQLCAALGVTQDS
Molecule,target,test,test system,conditions,scale,measurement,value
"PhoQ, residues 284 288 289 292 302 303 GANMMA","PhoP, residues 12 14 15 18 19 LHATL (Escherichia coli, UniProt P23836)","Sort-seq, refers to: YFP reporter",E. coli,"PhoQ-PhoP variant library, together with: 10 µM Mg2+","relative to: high Mg2+ state, higher = stronger signaling",fold induction,18
P1 S12N,"CCNF, cyclin fold, Cln2 fusion (human)","yeast growth competition, sequencing",yeast,strong parent motif,"relative to: not given, higher = stronger binding",normalised enrichment score,8.21

# A few entries again (series 2):
Strand,log2 enrichment
UGCCAUGGACAAUAUUACCAGGCAGAACCAAUUCUACGAUACCCAAGUCAUCAAACAAGAAAACGAGUCAGGCUACGAGAGGAGACCACU,-0.109
CAAGUCCUGUGCUACACAUCGUAUGUACCGAAUCGGGGAGGGGUUUGGGGUGGGGAAAGUAUUAUGUUACGCCGUUCGGAUCUGCACUUC,1.52
UGGGAGGUGGAUUUUGUUUAUUUUUUUAGCUCAUUUCUAGGGGUGGGAAUUUUUUUUUAAUAUGUGUCAUGAAUAAAGUUGUUUUUGAAA,-0.0758
